Assay results of several laboratories.
A part holds a random share of what one study measured. Substitutions count along the parent as printed.

Series 1 — technique: DHFR PCA, deep sequencing; matrix: yeast; added: (+)-ABA 1.4 µM; relative to: wild-type fitted maximum; reading: higher = stronger binding
Target: ABI1, truncated, D143A, DHFR fusion (Arabidopsis thaliana)
Setting: methotrexate growth selection, single substitutions
Starting sequence: PYL1, truncated, DHFR fusion (Arabidopsis thaliana); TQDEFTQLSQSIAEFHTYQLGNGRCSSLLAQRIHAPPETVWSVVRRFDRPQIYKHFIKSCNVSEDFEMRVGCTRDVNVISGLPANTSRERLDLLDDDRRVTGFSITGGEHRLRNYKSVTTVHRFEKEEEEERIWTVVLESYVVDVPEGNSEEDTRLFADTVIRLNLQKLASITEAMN; partner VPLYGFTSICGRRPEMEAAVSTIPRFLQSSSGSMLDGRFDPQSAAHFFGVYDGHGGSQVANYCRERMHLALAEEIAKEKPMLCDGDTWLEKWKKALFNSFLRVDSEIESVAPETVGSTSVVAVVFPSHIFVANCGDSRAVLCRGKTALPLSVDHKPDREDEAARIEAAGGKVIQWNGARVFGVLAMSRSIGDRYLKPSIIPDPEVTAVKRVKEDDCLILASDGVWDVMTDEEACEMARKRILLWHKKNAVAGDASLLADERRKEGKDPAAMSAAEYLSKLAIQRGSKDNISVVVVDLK
Substitution | relative binding score [%]
A84H | 52.9
G71W | 0.57
V43C | 5.56
F157L | 26.4
A13R | 50.9
T154G | -14.9
D95T | -1.19
W41N | -14.5
Q167I | 19.4
E139F | -22
V40C | -3.13
Q31G | -3.65

Series 2 — target: JUNB, bZIP domain (human); technique: DHFR protein complementation; matrix: yeast; relative to: wild-type JUN-FOS pair; reading: higher = stronger binding
Setting: single substitutions, most at no-binding floor
Starting sequence: JUN, bZIP domain (human); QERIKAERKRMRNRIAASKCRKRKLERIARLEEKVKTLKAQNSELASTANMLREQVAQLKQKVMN; partner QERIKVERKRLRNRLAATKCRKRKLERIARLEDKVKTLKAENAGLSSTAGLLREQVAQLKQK
Substitution | binding fitness [natural log]
A29C | -1.4
T37D | -1.09
I28S | -1.39
A49R | -1.37
A57Q | -1.23
R53G | -1.45
E44H | -1.11
L38V | -1.55

Series 3 — technique: RNA Bind-n-Seq; molecule type: RNA; matrix: in vitro; tested at: 1 µM; setting: whole 134-nt RNA, ends assumed; added: 150 mM KCl; relative to: input library; reading: higher = stronger binding
Target: Ras GTPase-activating protein-binding protein 1, RRM domain (G3BP1, Homo sapiens, UniProt Q13283)
Sequence of UniProt Q13283 (whole entry, looked up): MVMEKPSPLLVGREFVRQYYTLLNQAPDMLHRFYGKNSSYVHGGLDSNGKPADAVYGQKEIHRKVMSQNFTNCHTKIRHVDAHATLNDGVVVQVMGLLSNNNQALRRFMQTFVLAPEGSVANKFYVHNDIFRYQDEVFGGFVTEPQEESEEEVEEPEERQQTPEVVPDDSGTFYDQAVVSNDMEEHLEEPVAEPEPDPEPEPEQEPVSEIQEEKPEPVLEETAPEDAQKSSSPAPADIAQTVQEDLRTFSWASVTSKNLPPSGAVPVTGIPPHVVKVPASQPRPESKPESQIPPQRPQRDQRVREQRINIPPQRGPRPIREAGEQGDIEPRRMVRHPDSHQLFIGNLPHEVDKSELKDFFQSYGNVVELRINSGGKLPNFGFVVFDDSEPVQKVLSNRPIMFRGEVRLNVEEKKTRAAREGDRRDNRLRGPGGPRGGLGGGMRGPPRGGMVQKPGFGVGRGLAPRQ
Oligonucleotide | log2 enrichment
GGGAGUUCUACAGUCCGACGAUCUGGCCCUGGUGGCAUGCGGGGAGGAAGAGGUGGCCUCAUGGAUCGUGGUGGUCCCGGUGGAAUGUUCAGAGGUGGCCGUGGUGAAGACAGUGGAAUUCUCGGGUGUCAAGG | 1.8
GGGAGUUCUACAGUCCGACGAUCAGUCCUGUGCUACACAUCGUAUGUACCGAAUCGGGAAAAAAAGGGUUUGGGAAAGGGAAAGUAUUAUGUUACGCCGUUCGGAUCUGCACUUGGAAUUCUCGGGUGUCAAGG | 0.399
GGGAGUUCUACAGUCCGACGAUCAGUCCUGUGCUACACAUCGUAUGUACCGAAUCGGGAAAGGGAAAAAAAGGGAAAGGGAAAGUAUUAUGUUACGCCGUUCGGAUCUGCACUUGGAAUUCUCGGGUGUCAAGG | 0.375
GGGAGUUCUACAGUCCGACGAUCCAAGUCCUGUGCUACACAUCGUAUGUACCGAAUCGGGAAGGGGAAGGGGAAGGGGAAAGUAUUAUGUUACGCCGUUCGGAUCUGCACUUCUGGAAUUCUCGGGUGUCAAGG | 1.42
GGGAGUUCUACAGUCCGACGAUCGUCCUGUGCUACACAUCGUAUGUACCGAAUCGGCCCCCGGGGCCCCCGGGGCCCCCGGAAAGUAUUAUGUUACGCCGUUCGGAUCUGCACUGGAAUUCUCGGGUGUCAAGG | -0.468
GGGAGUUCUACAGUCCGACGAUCUGGCCCUGUUGGCAUGCGGGGAGGAAGAGGUGGCCUCAUGGAUCGUGGUGGUCCCGGUGGAAUGUUCAGAGGUGGCCGUGGUGGAGACAGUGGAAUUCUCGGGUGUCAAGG | 0.901
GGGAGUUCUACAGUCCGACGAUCUCUUGUAUGACUUAACCCCUGUUUCUAAUACAGGGGCCGCUCUCCUCAGCCUCCUGCUGAAGAGGAUGAAGAUGACUUUGAUGAUACCCUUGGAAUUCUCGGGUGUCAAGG | -0.124
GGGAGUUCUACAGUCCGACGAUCUGGAUAUGGUUAUAGAAGAAGUGGCCGAGAUAAAUAUGGCCCUCCUACUCGCACAGAGUACAGACUUAUUGUGGAGAAUUUGUCAAGUCGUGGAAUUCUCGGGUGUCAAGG | -0.0535
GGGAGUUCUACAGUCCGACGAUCUCAAGUCCUGUGCUACACAUCGUAUGUACCGAAUCGGGUUGGGUUGGGUUGGGGAAAGUAUUAUGUUACGCCGUUCGGAUCUGCACUUCCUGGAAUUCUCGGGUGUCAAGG | 1.01
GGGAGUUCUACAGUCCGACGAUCAAGUCCUGUGCUACACAUCGUAUGUACCGAAUCGGCCCCGGGCCCCGGGGCCCCGGAAAGUAUUAUGUUACGCCGUUCGGAUCUGCACUUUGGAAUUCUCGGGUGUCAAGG | -0.602
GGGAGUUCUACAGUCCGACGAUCUCAAGUCCUGUGCUACACAUCGUAUGUACCGAAUCGGGGCCGGGGCCGGCCGGGGAAAGUAUUAUGUUACGCCGUUCGGAUCUGCACUUCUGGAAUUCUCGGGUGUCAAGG | -1.1
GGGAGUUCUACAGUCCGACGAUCGUCCUGUGCUACACAUCGUAUGUACCGAAUCGGGUUUUUGGGAAAGGGUUUUUUUGGGAAAGUAUUAUGUUACGCCGUUCGGAUCUGCACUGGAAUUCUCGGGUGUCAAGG | 0.13
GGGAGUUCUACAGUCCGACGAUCCAAGUCCUGUGCUACACAUCGUAUGUACCGAAUCGGGAAAGGGAAAAAGGGAGGGAAAGUAUUAUGUUACGCCGUUCGGAUCUGCACUUCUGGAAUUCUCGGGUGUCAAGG | 0.945
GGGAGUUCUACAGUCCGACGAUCACCAUGCAGGUGGGCAUCUUUGGGAAGUGGGGCAAGGCGGGGAUAGGGAGGGGGGUAACACUUUGGGAACAGGUGGUCCCAGGUCGUUUCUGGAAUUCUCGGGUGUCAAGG | -0.443

Series 4 — technique: EMSA with sequencing; molecule type: double-stranded DNA, one strand shown; matrix: in vitro; tested at: 10 and 20 nM; relative to: negative control set to 0; reading: higher = stronger binding
Target: Hepatocyte nuclear factor 3-alpha (Foxa1, Mus musculus, UniProt P35582, residues 1-468, full length assumed)
Sequence of UniProt P35582 (whole entry, looked up): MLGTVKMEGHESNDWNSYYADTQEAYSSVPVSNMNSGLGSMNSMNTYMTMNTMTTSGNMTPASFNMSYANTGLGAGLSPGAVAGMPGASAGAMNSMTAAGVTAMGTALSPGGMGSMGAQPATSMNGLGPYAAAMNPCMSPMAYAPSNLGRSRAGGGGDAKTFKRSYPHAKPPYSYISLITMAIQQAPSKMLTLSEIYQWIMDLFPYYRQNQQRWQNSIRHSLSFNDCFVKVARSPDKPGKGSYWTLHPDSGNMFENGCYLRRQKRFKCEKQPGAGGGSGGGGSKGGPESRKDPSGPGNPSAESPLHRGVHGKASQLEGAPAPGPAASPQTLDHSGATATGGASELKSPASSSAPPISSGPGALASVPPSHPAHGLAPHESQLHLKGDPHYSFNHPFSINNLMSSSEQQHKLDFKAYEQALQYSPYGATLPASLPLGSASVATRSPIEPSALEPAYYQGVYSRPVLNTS
Setting: whole designed probe, mean of two concentrations, ends assumed
Oligonucleotide | normalised bound fraction [ratio]
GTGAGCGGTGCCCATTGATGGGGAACACCAAGTTTCTGTAAAGATGGAAGAACAAGGTAACAGAAAGGAGAAATAACATGCCATGTTCCAAAGGGAAGTATTGTGGGCCCCTAAAGTACTATTTACTTTTCTACAGTGTGTCACTGCAAATATATATACACAAGTCAAGTTATGTGAGTCAACAACAGATTTAAGTTCCTAAGTTGGAGGGGAGAGCCCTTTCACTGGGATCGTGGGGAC | 0.473
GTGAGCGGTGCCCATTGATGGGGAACTTAAAAAGCACATATGCTGCTTGCATCACTATTTGATCCTTAACAGTCTAGGGACACGTTGCCATTTTCAAAGTAATACCATTTCCCATTCCTATGTTTACTTTGTACATGAAGTATAGTGGTCAACTGCCATGGGTCCATAAAGACTGGGTATTACAGTAAGATCATACACATAAGGACTTCTTCCAGGACATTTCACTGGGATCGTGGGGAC | 0.484
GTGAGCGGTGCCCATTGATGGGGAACATCACTGGTTCTCAAAGCAAAGTTTACAAAGACCAGGGTCATCCTGAGAGTATGTGGGCAGATTACATGGTGCACTTGACCCTTGCTCCTTTGAGATTACACAGGCAGAGTCAGGCCAGACTACATGCCAGGGTGACCTTAAGAGAGAAAAGAGGCCAGGCATGGTGGCTCATACCTGTAATCCTAGCACTTTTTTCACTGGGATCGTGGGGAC | -0.00342
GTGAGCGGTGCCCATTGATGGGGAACATCTTCCCCCTCTTCCTTGCCCCACCAGCTCACCTTCCCGGGTTATTTGCAGATAGGAAAAGAATAAAATCCGGCATTCGTTAACCCTCTTCTGGCGCAAACTGCTGTTTGCTCTGGATGAATCATGGTCCTTTGGCGACGCCAGGCTCCGGGAGAGCAAAGCACCGTGTCAGGGCCATGATCCGGGGTGGCCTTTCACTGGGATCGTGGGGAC | 0.135
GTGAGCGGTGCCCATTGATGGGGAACATTCATGTGAAAATTACGATAATAACACATATCTCACCCAGAAGAAAAAAAAATTGTGAAGAAACTTAGAAGTTCTAAAAATATAAGGTATAATGTAAACATGAATAACAATAACATTTATAGCTTGATGTTTTTTCAGGCCTTGTAATTTTCAAAATATGTGTATATAGTTAGCTGATTAGAAGAAAATATGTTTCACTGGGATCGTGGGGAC | 0.371
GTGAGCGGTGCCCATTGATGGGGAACTTCTCCTTCACTCTCCCTGGTACAACTTGGCAGAGGATGGGGAGAACTGGGAAGAAGTGGATGCATTGAGTAGATCAAGCTTTTCCTCTTCATGTTTACTTTATATGATTTTAATTTTGTAACCTTGTTGTAGGACATAAAAAATGAATGACAGTGGACTTAGCTTTTATTTATAACATTGAAATCCTTAAAGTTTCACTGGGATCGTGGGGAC | 0.418
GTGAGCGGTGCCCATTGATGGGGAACCCCTCATCCTGGGTGTCGGGGTGGGAGGTGTTCTCATCATGAATGGGAGGCGTACCCAGATCCAGCTCTGCCTTTTTTTAACCAAACCAGAGTGTAAACAAATGGCTGTTAATCGACATAGTGACTCACCAGCAAGATATGATACATGCCAGGAGAGAAAAAGAAAGTGCTGATGGAAAAATAATCTCATTAGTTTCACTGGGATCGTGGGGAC | 0.368

Series 5 — target: CCNB1, cyclin fold, Cln2 fusion (human); technique: yeast growth competition, sequencing; matrix: yeast; setting: strong parent motif; relative to: not given; reading: higher = stronger binding
Starting sequence: PKMYT1 docking peptide (human); SFEPRNLLSLFED
Substitution | normalised enrichment score
SFEPRNLLSLFMD [E12M] | 0.158
SDEPRNLLSLFED [F2D] | 0.385
SFEVRNLLSLFED [P4V] | 0.639
SFEPRNLLSLFEK [D13K] | 1.1
SFFPRNLLSLFED [E3F] | 0.718
SAEPRNLLSLFED [F2A] | 0.145
SFEPRNLLSFFED [L10F] | 0.567
SFEPRNLLSLFEW [D13W] | 0.244
DFEPRNLLSLFED [S1D] | 2.34
SFEPQNLLSLFED [R5Q] | 0.875
SFEHRNLLSLFED [P4H] | 0.0992
SFEPRKLLSLFED [N6K] | 0.761
SFEPRNLLSLWED [F11W] | 0.574
AFEPRNLLSLFED [S1A] | 1.69
SFEARNLLSLFED [P4A] | 0.2
